Experimental data collected from several papers.
Parts stem from different laboratories: compare values within a part only. Positions count from the first letter of the parent shown.

Block 1
Target: Interferon regulatory factor 5, full length, phosphomimetic (IRF5, Homo sapiens, UniProt Q13568-2, residues 1-514, S451D/S453D/S456D/S462D)
Method: protein-binding microarray
Molecule type: double-stranded DNA, one strand shown
Sample: in vitro
Concentration: 940 nM top
Notes: 60-bp whole probe
Together with: salmon DNA 0.4 mg/ml
Reference: random background probes
Reading: higher = stronger binding
All sequences stand within: GCCTAGCAC … GTCTTGATTCGCTTGACGCTGCTG
| Sequence | fitted relative affinity |
| --- | --- |
| TCACCTTTATGTCCTGTACTGTGCTAG | 0.818 z-score |
| GTCGATATCGGGTTTCGAGACGTGCTA | 3.09 z-score |
| TTAGATTCCACTTTCGATTAGTGCTAG | 4.78 z-score |
| CTTTAACTTATTCTCTACTTGTGCTAG | 1.79 z-score |
| TACGGTATCGGACTGGGGACGTGCTAG | 2.29 z-score |
| TGAGGTATCGGGACTGGGTTAGTGCTA | 2.08 z-score |
| TTAGGTCTCGTTTTCGGTTAGTGCTAG | 3.64 z-score |
| GTCGGACTGGGTCTCGGGACGTGCTAG | -0.254 z-score |
| AACGATCTCAGTATCGAGACGTGCTAG | 2.06 z-score |
| GACGGTTTCGGTCTCGGAACGTGCTAG | 13.6 z-score |
| TTTCTTACATGCATCATAACGTGCTAG | 1.98 z-score |
| TTAGAAATCAGTATCGATTAGTGCTAG | 5.16 z-score |
| TCACTTTCCTTTATGTAACTGTGCTAG | 1.88 z-score |
| TTACATTTATATCTTTGCTTGTGCTAG | 0.979 z-score |
| ATAGAACTGGGGACTGGATTAGTGCTA | -0.0203 z-score |
| GACGGACCGGGGTTTCGGGACGTGCTA | 2.13 z-score |
| TTAGGTTTAGACTTTCGGTTAGTGCTA | 2.44 z-score |
| CTGACATGTAAATGTGACATGTGCTAG | -0.318 z-score |
| GGCGGTTTCGGGACTGGGGACGTGCTA | 7.04 z-score |
| TGAGGACTGCTACTGCTTTAGTGCTAG | -0.283 z-score |
| TTAGGTATAGGTTTCGGTTAGTGCTAG | 7.69 z-score |
| TTAGATTTCGGGATTCGATTAGTGCTA | 0.812 z-score |

Block 2
Target: RNA binding protein fox-1 homolog 2, RRM domain, GST-SBP tag (RBFOX2, Homo sapiens, UniProt O43251-10, residues 100-194)
Method: RNA Bind-n-Seq
Molecule type: RNA
Sample: in vitro
Concentration: 365 nM
Notes: natural RNA segment, single round, ends assumed
Reference: no-protein control
Reading: higher = stronger binding
| Sequence | RBNS enrichment (R) |
| --- | --- |
| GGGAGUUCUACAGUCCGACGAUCUGAAUCAAAAGUUUUAAAAGUAGUUUUAAAAACUUUACACUAUAAUGAUUUAGUUUUGUUAUUGCAUGUCUGUGUUAAGUAUUUUACAUUUGAGAUUGGAAUUAUUAGACUGGAAUUCUCGGGUGCCAA | 11.8 |
| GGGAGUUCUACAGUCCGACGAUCUCUGAAAUGGUUAUUUGCAGCCCAAUUCCUCAGUGUCAAUGAUCCUUUCUGAGGCUUGGCUUUAGAAAUAACCUUUUGGAACAAACUAUAAAUAUUUCCUAGCAAGGAUCUGGAAUUCUCGGGUGCCAA | 0.46 |
| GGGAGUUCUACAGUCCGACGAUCGCGCUCGCUUUCAUGGGACCAGACGUGAUGCUGGAAGGUGGGCGUCGUCACGGUUAAAGAGAAAUGGGCUCGUCCCGAGGGUAGUGCCUGAUCAAUGAGGGCGGGGCCUGUGGAAUUCUCGGGUGCCAA | 0.587 |
| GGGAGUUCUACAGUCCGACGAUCUCAAAAGUGCAUAUGGGACUCAGUCCUUAGGUGUUCUUUUUCUUUUAAGAAAUAACCUCUUACAGUUGUAACCAUUGCGGCUCUGUCCACUUCUCGUUGCUGCUCUGUGGUGGAAUUCUCGGGUGCCAA | 0.408 |
| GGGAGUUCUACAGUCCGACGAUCGCAUCGAUCGAAGCAAAAGGUGAUGUGUGUAUAUCAGAAAAAAGAAAUUAACUGUAUAUCAUUCCAGUACAUUCCGUUGUACAUUUUAGUCUCCGUUUACUUUCUCUUCAUGGAAUUCUCGGGUGCCAA | 0.395 |
| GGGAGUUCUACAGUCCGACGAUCUCCCAUUCACAUCAUUGGCCUGCGUUGCUGGGGCUUUGAACCACCACCCCGUACUUUGUUUUGCCUGUAGAGUGUUGUAAAAUAUUUUGGAUGUGAAUGUCCUUGCAGGCUGGAAUUCUCGGGUGCCAA | 1.03 |
| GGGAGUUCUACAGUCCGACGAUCCAGUUUAAAACAUGCCAUCUCAUCGGUAGUCCCUGCUCUUUUCCCUCUCCCAUCUGCCAGUCUCUCUGUGCCCUCGUGUCUGAGUGCUGUUUGCCCACCUUUUCCAGGUGUGGAAUUCUCGGGUGCCAA | 0.373 |
| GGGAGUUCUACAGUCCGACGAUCAGAGUGUUUGUGAAAAAGUUUUAUUUCCUGUUAUGUAUACAUAAUUAAAUGAAAAUUCUUCAGAAAAAGUUUGAUAAAUUGAAUUGUGGUUAUGAAACUAAUUUGCAUUUUGGAAUUCUCGGGUGCCAA | 2.3 |
| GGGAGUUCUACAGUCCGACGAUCCCACGCCCCUCAUGCCCUUGUCCCAGGCCCGGGGCCUUCAGCGUUGAACACUUCCUUGCUUUUUUCACAUGUUUUAUGGAAUUGUUCACCUGGUUUGAAAUAAUAAAAUGUGGAAUUCUCGGGUGCCAA | 0.651 |
| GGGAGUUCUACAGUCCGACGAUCUUAUGGAAGCACUCUACAAUGAACAGUUGAAUUUUAUGUCUAUUCUUUUUUCCUAUUUUAAAAGUUCUAGUGGUAACACAAACUGUAAAUUUGAGUCAGAAUGUUUGGAGUGGAAUUCUCGGGUGCCAA | 0.408 |
| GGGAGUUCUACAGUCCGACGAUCCACAAAAACAUGAGUGGGGUGAGCCCCAAGUACACAGGUCACGGUACAUCAACACAGUGGUGAUGCUGGAGAACGUUACCCAAGGUCUCAUCAGUGUCUCUGCUGUACUGUGGAAUUCUCGGGUGCCAA | 0.424 |
| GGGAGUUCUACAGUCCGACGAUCCCUGCACCUCCGCGGGCUGACUGGGCCACAGCCCCGAUGAUUCUUAACACAGCCUUCCUUCUGCUCCCACCCCAGAAAUCACUGUGAAAUUUCAUGAUUGGCUUAAAGUGUGGAAUUCUCGGGUGCCAA | 0.968 |

Block 3
Target: PABPC1L2, full length, GST fusion (mouse, UniProt A0ABA7IW68)
Method: RNAcompete
Molecule type: RNA
Sample: in vitro
Concentration: 20 nM
Notes: 7-mer, probes averaged, single round
Reference: mean of 7-mers
Reading: higher = stronger binding
Residues (chain): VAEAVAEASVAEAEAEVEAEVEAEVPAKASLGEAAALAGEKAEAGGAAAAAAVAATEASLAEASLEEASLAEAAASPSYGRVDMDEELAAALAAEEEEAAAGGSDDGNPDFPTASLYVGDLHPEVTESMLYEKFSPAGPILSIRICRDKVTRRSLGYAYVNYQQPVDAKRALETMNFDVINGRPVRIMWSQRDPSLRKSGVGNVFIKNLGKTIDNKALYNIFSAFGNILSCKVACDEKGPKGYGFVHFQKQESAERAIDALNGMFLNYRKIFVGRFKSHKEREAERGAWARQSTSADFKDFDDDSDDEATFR
| Sequence | 7-mer Z-score |
| --- | --- |
| UACUUUU | -0.224 |
| GAGAAUC | -0.151 |
| GAUAUGA | -0.0573 |
| GAGGUAC | 0.0243 |
| UGGCUAU | -0.0899 |
| GUUGACC | 0.0189 |
| UGCGAAC | 0.0189 |
| CACACCA | -0.148 |
| CAUGAAU | 0.0895 |
| CCCGCUA | -0.382 |
| AAUUAUU | 0.149 |
| CGUUAAG | -0.188 |
| CAGUUGG | -0.05 |
| CCUUUAG | -0.0736 |
| AUCCUAG | -0.188 |
| CGUCCAC | -0.324 |
| CGUCAGU | -0.364 |

Block 4
Target: Histone acetyltransferase KAT6A, both winged helices, GST fusion (KAT6A, Homo sapiens, UniProt Q92794, residues 1-181)
Method: protein binding microarray
Molecule type: double-stranded DNA, one strand shown
Sample: in vitro
Concentration: not given
Notes: 8-mer, flanks averaged, mean of 2 arrays, mostly near background
Reference: not given
Reading: higher = stronger binding
Target sequence (chain): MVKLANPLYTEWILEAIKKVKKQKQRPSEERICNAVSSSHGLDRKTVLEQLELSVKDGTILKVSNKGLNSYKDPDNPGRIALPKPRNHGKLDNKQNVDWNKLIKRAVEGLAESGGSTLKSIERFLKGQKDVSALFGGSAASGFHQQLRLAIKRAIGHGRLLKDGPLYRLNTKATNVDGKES
| Sequence | E-score |
| --- | --- |
| ACTGAATA | -0.195 |
| ATCGCACA | -0.0416 |
| AGTATGTC | -0.114 |
| CCTACTAA | -0.129 |
| GACGGAAA | 0.293 |
| CTGGCACA | -0.138 |
| ACTTCTCT | -0.129 |
| ATGACCCC | -0.044 |
| ACTCTGCC | -0.138 |
| ATGGACAG | -0.121 |
| TACAGCCA | -0.18 |
| GAAAACGA | -0.0154 |
| CACTGCAA | -0.0405 |
| CACATACG | 0.0731 |
| GCGTCATA | 0.0915 |
| CATCGGAA | 0.0815 |
| TCCTGAAA | 0.00804 |
| CAGTACCC | -0.161 |
| GAAGATCC | -0.0774 |
| CGTTATCC | -0.0638 |
| CCTCGTAG | -0.153 |
| AGTTGTGC | -0.0835 |
| GCTTAATA | -0.0206 |
| CGATCCCA | -0.0383 |
| CTCCATCC | -0.18 |

Block 5
Target: CCNB1, cyclin fold, Cln2 fusion (human)
Method: yeast growth competition, sequencing
Sample: yeast
Notes: weak parent motif
Reference: not given
Reading: higher = stronger binding
Starting sequence: CDT1 docking peptide (human); PPARRRLRLSVDE
| Substitution | normalised enrichment score |
| --- | --- |
| R6A | 0.629 |
| R4A | 0.314 |
| E13A | 1.09 |
| R5K L9F | 0.842 |
| P2A | 0.489 |
| R8A | 1.02 |
| L9A | 0.762 |

Some of these lines once more (block 1):
| Sequence | fitted relative affinity |
| --- | --- |
| TCACTTTCCTTTATGTAACTGTGCTAG | 1.88 z-score |
| TTACATTTATATCTTTGCTTGTGCTAG | 0.979 z-score |
| ATAGAACTGGGGACTGGATTAGTGCTA | -0.0203 z-score |
| GACGGACCGGGGTTTCGGGACGTGCTA | 2.13 z-score |
| TTAGGTTTAGACTTTCGGTTAGTGCTA | 2.44 z-score |
